Measurements from different studies.
Several values in a cell are separate wells, animals, samples, runs or records. ± marks the error that the study gave.

| Compound | assay | test system | setting | scale | quantity | value |
| --- | --- | --- | --- | --- | --- | --- |
| CSCC[C@H](N)C(=O)N[C@@H](C)C(=O)N[C@@H](Cc1c[nH]c2ccccc12)C(=O)N[C@@H](Cc1c[nH]cn1)C(=O)N[C@@H](CC(=O)O)C(=O)N[C@@H](CC(=O)O)C(=O)N[C@@H](CCC(=O)O)C(=O)N[C@@H](CCC(=O)O)C(=O)N[C@@H](Cc1ccccc1)C(=O)N[C@@H](C)C(=O)N[C@@H](CCCNC(=N)N)C(=O)N[C@@H](CCCNC(=N)N)C(=O)N[C@@H](CCCNC(=N)N)C(=O)N[C@@H](CCCNC(=N)N)C(=O)NCCCCCC(=O)NCCCCC(NC(=O)CCCCCNC(=O)[C@H](CCCNC(=N)N)NC(=O)[C@H](CCCNC(=N)N)NC(=O)[C@H](CCCNC(=N)N)NC(=O)[C@H](CCCNC(=N)N)NC(=O)[C@H](C)NC(=O)[C@H](Cc1ccccc1)NC(=O)[C@H](CCC(=O)O)NC(=O)[C@H](CCC(=O)O)NC(=O)[C@H](CC(=O)O)NC(=O)[C@H](CC(=O)O)NC(=O)[C@H](Cc1c[nH]cn1)NC(=O)[C@H](Cc1c[nH]c2ccccc12)NC(=O)[C@H](C)NC(=O)[C@@H](N)CCSC)C(=O)NCCCCC(NC(=O)C(CCCCNC(=O)CCCCCNC(=O)[C@H](CCCNC(=N)N)NC(=O)[C@H](CCCNC(=N)N)NC(=O)[C@H](CCCNC(=N)N)NC(=O)[C@H](CCCNC(=N)N)NC(=O)[C@H](C)NC(=O)[C@H](Cc1ccccc1)NC(=O)[C@H](CCC(=O)O)NC(=O)[C@H](CCC(=O)O)NC(=O)[C@H](CC(=O)O)NC(=O)[C@H](CC(=O)O)NC(=O)[C@H](Cc1c[nH]cn1)NC(=O)[C@H](Cc1c[nH]c2ccccc12)NC(=O)[C@H](C)NC(=O)[C@@H](N)CCSC)NC(=O)CCCCCNC(=O)[C@H](CCCNC(=N)N)NC(=O)[C@H](CCCNC(=N)N)NC(=O)[C@H](CCCNC(=N)N)NC(=O)[C@H](CCCNC(=N)N)NC(=O)[C@H](C)NC(=O)[C@H](Cc1ccccc1)NC(=O)[C@H](CCC(=O)O)NC(=O)[C@H](CCC(=O)O)NC(=O)[C@H](CC(=O)O)NC(=O)[C@H](CC(=O)O)NC(=O)[C@H](Cc1c[nH]cn1)NC(=O)[C@H](Cc1c[nH]c2ccccc12)NC(=O)[C@H](C)NC(=O)[C@@H](N)CCSC)C(N)=O (stereo partly drawn) | – | C57BL/6 mouse female, colon | dose not given, 3 h | reference: total | mean tissue distribution | 2.99% |
| COc1cc2c(cc1O)C(CCc1ccc(Cl)cc1)N([11CH3])CC2 (stereo not drawn) | PET | Sprague-Dawley rat, male, brain NR2B-rich regions | intravenous, 20.5 MBq, no carrier added | – | half-maximal concentration, time to | 30 min |
| O=C1NC2(CC2)COc2ncc(F)cc2[C@H]2COCCN2c2ccn3ncc1c3n2 | – | Sprague-Dawley rat, female, thymus | oral, 2.5 mg/kg/day, 4 weeks dosing, end of recovery | – | organ-to-brain weight ratio | 20.4 ± 3.18% |
| Cn1nc(NS(C)(=O)=O)c2c(Cl)ccc(-n3c([C@H](Cc4cc(F)cc(F)c4)NC(=O)Cn4nc(C(F)F)c5c4C(F)(F)[C@@H]4C[C@H]54)nc4nc(OCCC(F)(F)F)ccc4c3=O)c21 | – | human, plasma | oral, 200 mg single dose, powder in bottle, median | – | tmax | 10 h |
| CN1Cc2cc(Cl)ccc2-n2c(nnc2C2CCN(c3cccc([18F])n3)CC2)C1 | – | C57BL/6 mouse male, kidney | intravenous, 3.7 MBq, 60 min | – | tissue uptake | 6.88 ± 0.35 %ID/g |
| CCCCC(CC)COC(=O)CC(C(=O)OCC(CC)CCCC)S(=O)(=O)O.COC(=O)Nc1nc2cc(C(=O)c3ccc(F)cc3)ccc2[nH]1 (stereo not drawn) | visual inspection | Labrasol | – | – | solubility | ~30 mg/mL |
| COc1cnc2cccc(N3CCc4c(cc(Cn5ccnc5)cc4-c4cn(C)nc4C(F)(F)F)C3=O)c2c1 | – | CD-1 mouse | intraperitoneal, 50 mg/kg once daily, day 5, dose-escalation tolerability | reference: day 1 | body weight change | 8.4% |
| CC[C@H](C)[C@H](NC(=O)[C@H](CCCCN)NC(=O)CNC(=O)[C@H](CC(C)C)NC(=O)[C@H](Cc1ccccc1)NC(=O)[C@H](CCCCN)NC(=O)[C@H](CO)NC(=O)[C@H](Cc1ccccc1)NC(=O)[C@H](Cc1c[nH]c2ccccc12)NC(=O)[C@H](CCC(N)=O)NC(=O)[C@@H](NC(=O)[C@H](Cc1ccccc1)NC(=O)CCCCCNC(=O)CN1CCN(CC(=O)O)CCN(CC(=O)O)CCN(CC(=O)O)CC1)C(C)C)C(=O)N[C@@H](CCC(=O)O)C(=O)N1CCC[C@H]1C(=O)N[C@@H](CC(=O)O)C(=O)N[C@H](C(=O)N[C@@H](CO)C(=O)N[C@@H](CCC(N)=O)C(=O)N[C@H](C(=O)N[C@@H](CCC(N)=O)C(=O)N[C@@H](CC(=O)O)C(=O)N1CCC[C@H]1C(=O)N[C@@H](CC(N)=O)C(=O)N[C@@H](CC(=O)O)C(=O)N[C@@H](CCC(N)=O)C(=O)N[C@@H](Cc1ccc(O)cc1)C(=O)N[C@@H](CCC(=O)O)C(=O)N1CCC[C@H]1C(=O)N[C@@H](Cc1ccccc1)C(=O)O)C(C)C)C(C)C [copper-64 labelled] | dynamic PET | mouse both sexes, CT26 tumour, checkpoint inhibitor-treated, tumour | intravenous, 100 µCi/mouse, 510 s | – | SUVmean | 4.11 SUV |
| CC(C)[C@@H]1NC(=O)CNC(=O)[C@H](CC(N)=O)NC(=O)[C@H](CCCNC(=N)N)NC(=O)[C@H](Cc2ccc(O)cc2)NC(=O)[C@H](C(C)C)NC(=O)[C@@H](NC(=O)[C@@H](NC(=O)[C@H](CC(N)=O)NC(=O)[C@H](Cc2c[nH]c3ccccc23)NC(=O)[C@H](C)NC(=O)[C@H](Cc2ccccc2)NC(=O)CNC(=O)[C@H](CCCCN)NC(=O)[C@H](Cc2ccccc2)NC(=O)[C@H](Cc2ccccc2)NC(=O)[C@H](CCCCN)NC(=O)OCC2c3ccccc3-c3ccccc32)C(C)C)CSSC[C@@H](C(=O)N[C@@H](Cc2c[nH]cn2)C(=O)N[C@@H](CCCNC(=N)N)C(=O)N[C@@H](CCCNC(=N)N)C(=O)N[C@@H](C)C(=O)N[C@@H](CC(N)=O)C(N)=O)NC(=O)[C@H](C(C)C)NC(=O)[C@H](CCCNC(=N)N)NC1=O | – | ICR mice, blood | intraductal mammary, 10 mg/kg, day 5 | – | neutrophils | 19.7 ± 0.5% |
| CCc1nn(C)c2nc(-c3ccc(C(=O)O)cc3)nc(NCc3ccccc3)c12 | – | NSG mice | dose not given, day 1 of treatment | – | body weight | 23 g and 22.7 g and 21.7 g and 22.5 g |
| CC[C@H](C)[C@H](NC(=O)[C@H](C)NC(=O)[C@H](C)NC(=O)[C@H](CCC(N)=O)NC(=O)CNC(=O)[C@H](CC(C)C)NC(=O)[C@H](Cc1c[nH]cn1)NC(=O)[C@H](CCCCN)NC(=O)[C@H](C)NC(=O)CNC(=O)[C@H](CCCCN)NC(=O)[C@H](CCCNC(=N)N)NC(=O)[C@H](CC(C)C)NC(=O)[C@H](Cc1c[nH]c2ccccc12)NC(=O)[C@H](CCCCN)NC(=O)[C@H](CCCCN)NC(=O)[C@H](Cc1c[nH]c2ccccc12)NC(=O)CN)C(=O)N[C@@H](CCCCN)C(=O)NCC(=O)N[C@@H](CC(C)C)C(=O)N[C@@H](C)C(=O)N[C@@H](CO)C(=O)O | – | zebrafish embryos 28 hpf, E3 medium | 24 h | – | chronic toxic concentration | 5 µM |
| CCc1nnc(-c2c(OC)cc(-c3cnc4cc(-c5cnn(C)c5)ccn34)cc2OC)o1 | – | mouse plasma | – | – | unbound fraction | 0.038 |

For quick reference, copied from above:
| Compound | assay | test system | setting | scale | quantity | value |
| --- | --- | --- | --- | --- | --- | --- |
| CC[C@H](C)[C@H](NC(=O)[C@H](CCCCN)NC(=O)CNC(=O)[C@H](CC(C)C)NC(=O)[C@H](Cc1ccccc1)NC(=O)[C@H](CCCCN)NC(=O)[C@H](CO)NC(=O)[C@H](Cc1ccccc1)NC(=O)[C@H](Cc1c[nH]c2ccccc12)NC(=O)[C@H](CCC(N)=O)NC(=O)[C@@H](NC(=O)[C@H](Cc1ccccc1)NC(=O)CCCCCNC(=O)CN1CCN(CC(=O)O)CCN(CC(=O)O)CCN(CC(=O)O)CC1)C(C)C)C(=O)N[C@@H](CCC(=O)O)C(=O)N1CCC[C@H]1C(=O)N[C@@H](CC(=O)O)C(=O)N[C@H](C(=O)N[C@@H](CO)C(=O)N[C@@H](CCC(N)=O)C(=O)N[C@H](C(=O)N[C@@H](CCC(N)=O)C(=O)N[C@@H](CC(=O)O)C(=O)N1CCC[C@H]1C(=O)N[C@@H](CC(N)=O)C(=O)N[C@@H](CC(=O)O)C(=O)N[C@@H](CCC(N)=O)C(=O)N[C@@H](Cc1ccc(O)cc1)C(=O)N[C@@H](CCC(=O)O)C(=O)N1CCC[C@H]1C(=O)N[C@@H](Cc1ccccc1)C(=O)O)C(C)C)C(C)C [copper-64 labelled] | dynamic PET | mouse both sexes, CT26 tumour, checkpoint inhibitor-treated, tumour | intravenous, 100 µCi/mouse, 510 s | – | SUVmean | 4.11 SUV |
| CSCC[C@H](N)C(=O)N[C@@H](C)C(=O)N[C@@H](Cc1c[nH]c2ccccc12)C(=O)N[C@@H](Cc1c[nH]cn1)C(=O)N[C@@H](CC(=O)O)C(=O)N[C@@H](CC(=O)O)C(=O)N[C@@H](CCC(=O)O)C(=O)N[C@@H](CCC(=O)O)C(=O)N[C@@H](Cc1ccccc1)C(=O)N[C@@H](C)C(=O)N[C@@H](CCCNC(=N)N)C(=O)N[C@@H](CCCNC(=N)N)C(=O)N[C@@H](CCCNC(=N)N)C(=O)N[C@@H](CCCNC(=N)N)C(=O)NCCCCCC(=O)NCCCCC(NC(=O)CCCCCNC(=O)[C@H](CCCNC(=N)N)NC(=O)[C@H](CCCNC(=N)N)NC(=O)[C@H](CCCNC(=N)N)NC(=O)[C@H](CCCNC(=N)N)NC(=O)[C@H](C)NC(=O)[C@H](Cc1ccccc1)NC(=O)[C@H](CCC(=O)O)NC(=O)[C@H](CCC(=O)O)NC(=O)[C@H](CC(=O)O)NC(=O)[C@H](CC(=O)O)NC(=O)[C@H](Cc1c[nH]cn1)NC(=O)[C@H](Cc1c[nH]c2ccccc12)NC(=O)[C@H](C)NC(=O)[C@@H](N)CCSC)C(=O)NCCCCC(NC(=O)C(CCCCNC(=O)CCCCCNC(=O)[C@H](CCCNC(=N)N)NC(=O)[C@H](CCCNC(=N)N)NC(=O)[C@H](CCCNC(=N)N)NC(=O)[C@H](CCCNC(=N)N)NC(=O)[C@H](C)NC(=O)[C@H](Cc1ccccc1)NC(=O)[C@H](CCC(=O)O)NC(=O)[C@H](CCC(=O)O)NC(=O)[C@H](CC(=O)O)NC(=O)[C@H](CC(=O)O)NC(=O)[C@H](Cc1c[nH]cn1)NC(=O)[C@H](Cc1c[nH]c2ccccc12)NC(=O)[C@H](C)NC(=O)[C@@H](N)CCSC)NC(=O)CCCCCNC(=O)[C@H](CCCNC(=N)N)NC(=O)[C@H](CCCNC(=N)N)NC(=O)[C@H](CCCNC(=N)N)NC(=O)[C@H](CCCNC(=N)N)NC(=O)[C@H](C)NC(=O)[C@H](Cc1ccccc1)NC(=O)[C@H](CCC(=O)O)NC(=O)[C@H](CCC(=O)O)NC(=O)[C@H](CC(=O)O)NC(=O)[C@H](CC(=O)O)NC(=O)[C@H](Cc1c[nH]cn1)NC(=O)[C@H](Cc1c[nH]c2ccccc12)NC(=O)[C@H](C)NC(=O)[C@@H](N)CCSC)C(N)=O (stereo partly drawn) | – | C57BL/6 mouse female, colon | dose not given, 3 h | reference: total | mean tissue distribution | 2.99% |
